Results from different studies.
Every numbered part comes from another study and shows a few of its results, in no order. Positions count from the first letter of the parent shown.
Chain of UniProt Q9HAZ1 (whole entry, looked up): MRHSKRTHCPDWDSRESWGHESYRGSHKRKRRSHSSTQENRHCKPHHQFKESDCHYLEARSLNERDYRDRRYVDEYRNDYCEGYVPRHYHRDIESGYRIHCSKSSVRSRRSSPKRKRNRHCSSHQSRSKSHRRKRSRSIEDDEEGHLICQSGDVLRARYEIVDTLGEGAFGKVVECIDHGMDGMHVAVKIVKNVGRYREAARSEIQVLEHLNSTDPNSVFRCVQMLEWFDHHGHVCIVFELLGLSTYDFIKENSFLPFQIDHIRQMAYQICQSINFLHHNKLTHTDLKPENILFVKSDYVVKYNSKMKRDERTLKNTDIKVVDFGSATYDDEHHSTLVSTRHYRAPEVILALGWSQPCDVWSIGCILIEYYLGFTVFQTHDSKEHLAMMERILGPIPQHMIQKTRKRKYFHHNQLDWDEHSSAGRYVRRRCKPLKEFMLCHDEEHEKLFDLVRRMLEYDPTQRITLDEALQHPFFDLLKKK

Study 1 — target: inorganic phosphate, free oxyanion; method: microfluidic competitive inhibition; medium: in vitro, cell-free expressed; tested at: not given; reading: lower = stronger binding
Setting: derived from inhibition constants, unchanged parent 615000 nM
Starting sequence: PafA, mature enzyme, eGFP fusion (Elizabethkingia meningoseptica, UniProt Q9KJX5); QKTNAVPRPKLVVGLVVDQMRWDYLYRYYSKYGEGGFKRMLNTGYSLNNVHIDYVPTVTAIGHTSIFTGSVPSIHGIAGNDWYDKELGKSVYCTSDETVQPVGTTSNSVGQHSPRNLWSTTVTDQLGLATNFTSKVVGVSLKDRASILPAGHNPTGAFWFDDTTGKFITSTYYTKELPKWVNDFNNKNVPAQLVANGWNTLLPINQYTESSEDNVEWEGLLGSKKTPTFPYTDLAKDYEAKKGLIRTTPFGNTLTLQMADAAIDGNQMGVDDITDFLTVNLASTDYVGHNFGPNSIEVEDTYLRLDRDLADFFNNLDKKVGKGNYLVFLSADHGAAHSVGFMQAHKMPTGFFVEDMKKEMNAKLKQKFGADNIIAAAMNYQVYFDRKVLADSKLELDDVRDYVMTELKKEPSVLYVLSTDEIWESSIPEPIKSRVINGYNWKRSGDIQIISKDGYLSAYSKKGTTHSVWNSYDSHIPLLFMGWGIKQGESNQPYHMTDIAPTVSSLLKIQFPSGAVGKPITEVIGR
`A370G` — result for “phosphate dissociation constant”: 581 µM.
`F480V` — result for “phosphate dissociation constant”: 415 µM.
`L396G`: “phosphate dissociation constant” 663 µM.
`G517A` — result for “phosphate dissociation constant”: 415 µM.
`I263V`: “phosphate dissociation constant” 585 µM.
`F67V`: “phosphate dissociation constant” 289 µM.
`K135V` — result for “phosphate dissociation constant”: 588 µM.
Under “phosphate dissociation constant”, `F368G` is recorded as 589 µM.

Study 2 — target: CCNA1, cyclin fold, Cln2 fusion (human); method: yeast growth competition, sequencing; medium: yeast; setting: weak parent motif; relative to: not given; reading: higher = stronger binding
Starting sequence: viral docking peptide; PGASRRLFGSSAD; partner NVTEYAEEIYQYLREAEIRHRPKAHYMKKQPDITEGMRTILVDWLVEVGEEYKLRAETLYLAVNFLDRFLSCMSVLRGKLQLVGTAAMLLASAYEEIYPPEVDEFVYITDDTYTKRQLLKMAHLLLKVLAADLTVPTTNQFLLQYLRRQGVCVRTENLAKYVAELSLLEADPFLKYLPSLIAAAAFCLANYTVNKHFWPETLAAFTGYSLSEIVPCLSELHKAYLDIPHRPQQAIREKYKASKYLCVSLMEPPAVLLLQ
`PGASRRAFGSSAD [L7A]`: “normalised enrichment score” 0.244.
Under “normalised enrichment score”, `AGASRRLFGSSAD [P1A]` is recorded as 0.0497.
For `PGASRRLFGASAD [S10A]`, “normalised enrichment score” read 0.0819.
`PGAARRLFGSSAD [S4A]` — result for “normalised enrichment score”: 0.46.
Under “normalised enrichment score”, `PGASRALFGSSAD [R6A]` is recorded as -0.0317.
For `PGASRRLLGSSAD [F8L]`, “normalised enrichment score” read 0.0183.
`PGASARAFGSSAD [R5A L7A]`: “normalised enrichment score” 0.098.

Further values, each from its own experiment
The inhibition of `CCc1ccccc1C(=O)Nc1n[nH]c2c(C)c(F)c(C3C(C#N)=C(C)N(C)C(C)=C3C#N)cc12` is reported as 8.47% (D(1B) dopamine receptor (DRD5, Homo sapiens, UniProt P21918); ligand displacement; 10 µM).
`O=C1NC(=O)c2c1c1c3ccccc3n3c1c1c2c2ccccc2n1[C@H]1CC[C@@H]3O1` gave a remaining activity of 20.3% (Dual specificity protein kinase CLK4 (CLK4, Homo sapiens, UniProt Q9HAZ1); enzyme activity, inhibitor; 0.5 µM; relative to: control).
